Published values from different studies.
Protocols differ between the studies behind these lines. ± marks the error that the study gave.
Cell line: HepG2

CCC1(c2ccc(NC(=O)CCC(=O)OC3OC4OC5(C)CCC6C(C)CCC(C3C)C46OO5)cc2)CCC(=O)NC1=O (mixture of isomers)  IC50 (cell growth or viability, CCK-8): > 50 µM
O=C1C=CC(=C(c2ccc(O)cc2)c2c(C#Cc3ccc(O)cc3)cccc2-c2ccc(O)cc2)C=C1  IC50 (cell growth or viability, MTT; 48 h): 13.3 µM
O[C@]12C=C(c3nccc4c3[nH]c3ccccc34)[C@@H]3CCN(CCCC/C=C\CC1)C[C@@]31C[C@@H]3/C=C\CCCCN3[C@H]12  IC50 (cell growth or viability, neutral red; 48 h): 4.4 µg/mL
O=C1C=CC(=O)c2c(O)ccc(O)c21  IC50 (cell growth or viability, MTT): 1.37 µM
Nc1c(C(=O)N2CCCCC2)sc2nc(-c3ccccc3)cc(C(F)(F)F)c12  IC50 (cell growth or viability; 72 h): > 100 µM
NC(=O)c1cccc2c3c([nH]c12)CCC(N)C3 (stereo not drawn)  IC50 (cell growth or viability): 0.2 µM
COc1ccc(CN2CCN(Cc3ccccc3)CC2)c(O)c1  IC50 (cytotoxicity, MTT): > 50 µM
Cc1ccc(C(C)C)cc1.Cc1ccc(C(C)C)cc1.Cc1ccc(C(C)C)cc1.Cc1ccc(C(C)C)cc1.O=S(=O)(O)C(F)(F)F.O=S(=O)(O)C(F)(F)F.O=S(=O)(O)C(F)(F)F.O=S(=O)(O)C(F)(F)F.c1ccc2c3c4ccccc4c(c2c1)-c1cn(nn1)-c1cc[n+](cc1)[Ru-]1[O]c2ccc4c5c(ccc(c25)=[O+]1)=[O+][Ru-]([O]4)[n+]1ccc(cc1)-n1cc(nn1)-c1c2ccccc2c(c2ccccc12)-c1cn(nn1)-c1cc[n+](cc1)[Ru-]1[O]c2ccc4c5c(ccc(c25)=[O+]1)=[O+][Ru-]([O]4)[n+]1ccc(cc1)-n1cc-3nn1  IC50 (cell growth, MTT; 24 h, after 24 h preincubation in medium at 37 °C): 4.6 ± 0.34 µM
CC[C@H](C)[C@@H]1NC(=O)[C@@H]2CCCN2C(=O)[C@H](C)NC(=O)[C@H](CC(C)C)NC(=O)[C@@H]2CCCN2C(=O)[C@H](C)NC(=O)[C@@H]2CSSC[C@H](NC(=O)[C@H](C)NC(=O)[C@H](C)NC(=O)[C@H](Cc3ccc(O)cc3)NC(=O)[C@@H]3CCCN3C(=O)CNC(=O)[C@H](Cc3c[nH]c4ccccc34)NC1=O)C(=O)N[C@@H](CC(C)C)C(=O)N[C@@H](CO)C(=O)N[C@@H](C)C(=O)N[C@H]1CSSC[C@H](NC(=O)[C@H](C(C)C)NC(=O)[C@@H]3CCCN3C(=O)CNC(=O)CNC(=O)CNC(=O)[C@H](C)NC(=O)[C@H](C)NC(=O)[C@H](CC(C)C)NC1=O)C(=O)N[C@@H](CC(C)C)C(=O)N[C@@H](C)C(=O)N[C@@H](C(C)C)C(=O)N2  IC50: > 128 µg/mL
O=C1C=CC(=O)c2ccccc21  IC50 (cell growth or viability, MTT): 32.5 µM
CC1CCC2C(C)C(OC(=O)CCC(=O)N3CCN(CC(=O)Nc4ccc([N+](=O)[O-])c(C(F)(F)F)c4)CC3)OC3OC4(C)CCC1C32OO4 (stereo not drawn)  IC50 (cell growth or viability, CCK-8): 0.86 µM
Cc1ccc2c(Br)cc(Br)c([O-])c2n1.Cc1ccc2c(Br)cc(Br)c([O-])c2n1.[Co+2].c1cnc2c(c1)c1nccnc1c1cccnc12  IC50 (cell growth or viability, MTT; 48 h): 7.03 µM
